Experimental data collected from several papers.
Protocols differ between the studies behind these lines.
Organism: Acinetobacter baumannii

CC(C)C[C@@H]1NC(=O)[C@@H](CC(C)C)NC(=O)[C@H](CCN)NC(=O)[C@@H](NC(=O)[C@H](CCN)NC(=O)[C@@H](NC(=O)CCCCN=[N+]=[N-])[C@@H](C)O)CCNC(=O)[C@H]([C@@H](C)O)NC(=O)[C@H](CCN)NC(=O)[C@H](CCN)NC1=O
MIC (broth microdilution; BAA-747): > 121 µM

CCn1c(-c2ccc(OC)cc2)c(-c2ccc(OC)cc2)n(CC)c1=[Se]
MIC (broth microdilution; carbapenem-resistant; 24 h): > 40 µM

C#CCNC(=O)[C@H]1NC(=O)[C@H]2NC(=O)[C@H](NC(=O)[C@@H]3NC(=O)[C@H](CC(N)=O)NC(=O)[C@H](NC(=O)[C@@H](CC(C)C)NC)[C@H](O)c4ccc(c(Cl)c4)Oc4cc3cc(c4O[C@@H]3O[C@H](CO)[C@@H](O)[C@H](O)[C@H]3O[C@H]3C[C@](C)(N)[C@H](O)[C@H](C)O3)Oc3ccc(cc3Cl)[C@H]2O)c2ccc(O)c(c2)-c2c(O)cc(O)cc21
MIC (broth microdilution; BAA-747): 86 µM

CC[C@H](C)[C@H](NC(=O)[C@@H](CCCNC(=N)N)NC(=O)[C@H](CCCNC(=N)N)NC(=O)[C@@H]1CCCN1C(=O)[C@@H]1CCCN1C(=O)[C@H](CCCNC(=N)N)NC(=O)[C@@H]1CCCN1C(=O)[C@H](CCCNC(=N)N)NC(=O)[C@@H]1CCCN1C(=O)[C@H](CC(C)C)NC(=O)[C@H](Cc1ccc(O)cc1)NC(=O)[C@@H]1CCCN1C(=O)[C@H](Cc1ccccc1)NC(=O)[C@H](CCCCN)NC(=O)[C@H](CC(=O)O)NC(=O)[C@@H](N)C(C)C)C(=O)N[C@@H](Cc1ccc(O)cc1)C(=O)N[C@@H](CC(N)=O)C(=O)N[C@H](CCCNC(=N)N)C(N)=O
MIC (broth microdilution; DSM 30008; 18 h, 37 °C, 25% MHB2): 32 µg/mL

CC(=O)N[C@H](Cc1ccc(F)cc1)C(=O)N[C@@H](CCN)C(=O)N[C@H](C(=O)N[C@@H](CCN)C(=O)N[C@H]1CCNC(=O)[C@H]([C@@H](C)O)NC(=O)[C@H](CCN)NC(=O)[C@H](CCN)NC(=O)[C@H](CC(C)C)NC(=O)[C@@H](Cc2ccccc2)NC(=O)[C@H](CCN)NC1=O)[C@@H](C)O
MIC (broth microdilution; ATCC 19606, colistin-susceptible): 2 to 4 µg/mL

CCCCCCCC(=O)N[C@@H](CCN)C(=O)N[C@H](C(=O)N[C@@H](CCN)C(=O)N[C@H]1CCNC(=O)[C@H]([C@@H](C)O)NC(=O)[C@H](CCN)NC(=O)[C@H](CCN)NC(=O)[C@H](CC(C)C)NC(=O)[C@@H](C)NC(=O)[C@H](CCN)NC1=O)[C@@H](C)O
MIC (broth microdilution; ATCC 17978; 20 h, 37 °C): 128 µg/mL

CC[C@H](C)[C@H](NC(=O)[C@H](CCCCN)NC(=O)[C@@H](NC(=O)[C@@H](NC(=O)[C@H](CC(C)C)NC(=O)[C@H](CCCNC(=N)N)NC(=O)[C@@H](NC(=O)[C@H](CC(C)C)NC(=O)[C@H](CCCNC(=N)N)NC(=O)CNC(=O)[C@H](Cc1ccccc1)NC(=O)[C@@H](N)CCCNC(=N)N)[C@@H](C)CC)[C@@H](C)CC)C(C)C)C(=O)N[C@@H](C)C(=O)N[C@@H](CCCNC(=N)N)C(=O)N[C@@H](CCCNC(=N)N)C(=O)N[C@@H](C)C(=O)N[C@@H](Cc1c[nH]cn1)C(=O)N[C@@H](CCCNC(=N)N)C(=O)N[C@@H](C)C(=O)N[C@@H](CCCNC(=N)N)C(=O)N[C@@H](CO)C(=O)N[C@@H](C)C(=O)N[C@H](C(=O)N[C@@H](CCCCN)C(=O)N[C@@H](C)C(=O)N[C@@H](C)C(=O)N[C@@H](CO)C(=O)N[C@@H](CC(N)=O)C(=O)N[C@H](C(=O)N[C@@H](C)C(=O)N[C@@H](C)C(=O)N[C@@H](CC(C)C)C(=O)N[C@@H](C)C(=O)N[C@@H](Cc1c[nH]cn1)C(=O)NCC(=O)N[C@@H](C)C(N)=O)C(C)C)C(C)C
MIC (bacterial growth, broth microdilution; cation-adjusted Mueller Hinton broth; 18 h, 37 °C): ≤ 0.064 µM

CN[C@@H]1[C@H](O)[C@H](NC)[C@H]2O[C@]3(O)[C@H](O[C@@H]2[C@H]1O)O[C@H](C)C[C@H]3NC(=O)CNC(C)(C)C
MIC (microbial growth, broth dilution; ATCC19606): > 200 µg/mL

CCCCCCCC(=O)N[C@@H](CCN)C(=O)N[C@H](C(=O)N[C@@H](C)C(=O)N[C@H]1CCNC(=O)[C@H]([C@@H](C)O)NC(=O)[C@H](CCN)NC(=O)[C@H](CCN)NC(=O)[C@H](CC(C)C)NC(=O)[C@@H](Cc2ccccc2)NC(=O)[C@H](CCN)NC1=O)[C@@H](C)O
MIC (CLSI broth microdilution; 5075, CAMHB; 20 h, 37 °C): 4 µg/mL

CCCCCCCC(=O)N[C@@H](CCN)C(=O)N[C@H](C(=O)N[C@@H](CCN)C(=O)N[C@H]1CCNC(=O)[C@H]([C@@H](C)O)NC(=O)[C@H](CCN)NC(=O)[C@H](CCN)NC(=O)[C@H](Cc2ccc(C(F)(F)F)cc2)NC(=O)[C@@H](CC(C)C)NC(=O)[C@H](CCN)NC1=O)[C@@H](C)O
MIC (broth microdilution; colistin-resistant isolates): 1 to 2 µg/mL

CC(C)C[C@H](NC(=O)[C@@H](NC(=O)[C@H](CCCNC(=N)N)NC(=O)[C@H](CCC(N)=O)NC(=O)[C@H](Cc1ccccc1)NC(=O)[C@H](Cc1ccc(O)cc1)NC(=O)[C@H](CC(N)=O)NC(=O)[C@H](Cc1c[nH]c2ccccc12)NC(=O)[C@@H](NC(=O)[C@H](CCCNC(=N)N)NC(=O)[C@H](CCCCN)NC(=O)[C@@H](N)Cc1ccccc1)C(C)C)C(C)C)C(=O)N[C@H](C(=O)N[C@@H](CCCCN)C(=O)N[C@@H](CCCCN)C(=O)N[C@@H](Cc1ccc(O)cc1)C(N)=O)C(C)C
MIC (broth dilution; ATCC 19606): < 3.1 µM

CCCCCCCC(=O)N[C@@H](CCN)C(=O)N[C@H](C(=O)N[C@@H](CCN)C(=O)N[C@H]1CCNC(=O)[C@H]([C@@H](C)O)NC(=O)[C@H](CCN)NC(=O)[C@H](CCN)NC(=O)[C@H](C)NC(=O)[C@@H](Cc2ccccc2)NC(=O)[C@H](CCN)NC1=O)[C@@H](C)O
MIC (CLSI broth microdilution; 5075, CAMHB; 20 h, 37 °C): 2 µg/mL

CC[C@H](C)[C@H](NC(=O)[C@@H](CCCNC(=N)N)NC(=O)[C@H](CCCNC(=N)N)NC(=O)[C@H](CCC(N)=O)NC(=O)[C@H](Cc1c[nH]c2ccccc12)NC(=O)[C@H](CCCNC(=N)N)NC(=O)[C@@H]1CCCN1C(=O)[C@H](CCCNC(=N)N)NC(=O)[C@@H]1CCCN1C(=O)[C@H](CC(C)C)NC(=O)[C@H](Cc1ccc(O)cc1)NC(=O)[C@@H]1CCCN1C(=O)[C@@H]1CCCN1C(=O)[C@H](CCCCN)NC(=O)[C@H](CC(=O)O)NC(=O)[C@@H](N)C(C)C)C(=O)N[C@@H](Cc1ccc(O)cc1)C(=O)N[C@@H](CC(N)=O)C(=O)N[C@H](CCCNC(=N)N)C(N)=O
MIC (broth microdilution; DSM 30008; 18 h, 37 °C, 25% MHB2): 32 µg/mL

CC[C@H](C)[C@H](NC(=O)[C@H](Cc1c[nH]c2ccccc12)NC(=O)[C@H](CCCNC(=N)N)NC(=O)[C@@H](N)CCCNC(=N)N)C(=O)N[C@@H](CCCNC(=N)N)C(=O)N[C@@H](Cc1c[nH]c2ccccc12)C(=O)N[C@H](C(=O)N[C@H](C(N)=O)[C@@H](C)O)[C@@H](C)CC
MIC (without added MgSO4): 16 µg/mL

CC[C@H](C)[C@H](NC(=O)[C@@H](CCCNC(=N)N)NC(=O)[C@H](CCCNC(=N)N)NC(=O)[C@@H]1CCCN1C(=O)[C@@H]1CCCN1C(=O)[C@H](CCCNC(=N)N)NC(=O)[C@@H]1CCCN1C(=O)[C@H](CCCNC(=N)N)NC(=O)[C@@H]1CCCN1C(=O)[C@H](Cc1ccccc1)NC(=O)[C@H](Cc1ccc(O)cc1)NC(=O)[C@@H]1CCCN1C(=O)[C@@H]1CCCN1C(=O)[C@H](CCCCN)NC(=O)[C@H](CC(=O)O)NC(=O)[C@@H](N)C(C)C)C(=O)N[C@@H](Cc1ccc(O)cc1)C(=O)N[C@@H](CC(N)=O)C(=O)N[C@H](CCCNC(=N)N)C(N)=O
MIC (broth microdilution; DSM 30008; 18 h, 37 °C, 25% MHB2): 128 µg/mL

CC(=CC(C)CCCCC(=O)O)C1OC2C=CC1OC(=O)C=CC=CC=CC1OC3CC1OC(C=CCC1OC(CC(O)C1C)C(O)C(O)C=CCCC=CC2)C3C (stereo not drawn)
MIC (microbial growth; DSM30007): > 20 µM

CC[C@H](C)[C@H](NC(=O)[C@@H](CCCNC(=N)N)NC(=O)[C@H](CCCNC(=N)N)NC(=O)[C@H](Cc1c[nH]cn1)NC(=O)[C@H](Cc1c[nH]c2ccccc12)NC(=O)[C@H](CCCNC(=N)N)NC(=O)[C@@H]1CCCN1C(=O)[C@H](CCCNC(=N)N)NC(=O)[C@@H]1CCCN1C(=O)[C@H](CC(C)C)NC(=O)[C@H](Cc1ccc(O)cc1)NC(=O)[C@@H]1CCCN1C(=O)[C@@H]1CCCN1C(=O)[C@H](CCCCN)NC(=O)[C@H](CC(=O)O)NC(=O)[C@@H](N)C(C)C)C(=O)N[C@@H](Cc1ccc(O)cc1)C(=O)N[C@@H](CC(N)=O)C(=O)N[C@H](CCCNC(=N)N)C(N)=O
MIC (broth microdilution; DSM 30008; 18 h, 37 °C, 25% MHB2): 64 µg/mL

CCCCCCCC(=O)N[C@@H](CCN)C(=O)N[C@H](C(=O)N[C@@H](CCN)C(=O)N[C@H]1CCNC(=O)[C@H]([C@@H](C)O)NC(=O)[C@H](CCN)NC(=O)[C@H](CCN)NC(=O)[C@H](CC(C)C)NC(=O)[C@@H](Cc2ccc(Cl)cc2)NC(=O)[C@H](CCN)NC1=O)[C@@H](C)O
MIC (broth microdilution; ATCC 19606, colistin-susceptible): < 0.125 µg/mL
